Assay results from different studies.
A part holds a random share of what one study measured.

Sample 1
Target: RNA binding protein fox-1 homolog 2, RRM domain, GST-SBP tag (RBFOX2, Homo sapiens, UniProt O43251-10, residues 100-194)
Method: RNA Bind-n-Seq
Molecule type: RNA
Sample: in vitro
Concentration: 365 nM
Setting: natural RNA segment, single round, ends assumed
Baseline: no-protein control
Reading: higher = stronger binding
All sequences stand within: GGGAGUUCUACAGUCCGACGAUC … UGGAAUUCUCGGGUGCCAA
Residues (chain): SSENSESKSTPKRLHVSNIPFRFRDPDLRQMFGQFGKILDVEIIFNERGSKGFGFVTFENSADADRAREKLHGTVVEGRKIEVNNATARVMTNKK
Under “RBNS enrichment (R)”, `GCUUAGAAUUAAAUAUCACUUUCUUAUGAACAACAUAACUUCUUCAGAUUGUGUAUAUGAAAACAUUAGCAAGUCUUGUUUUUUCUAUGAAGCAAACACAAUUGGUGACA` is recorded as 0.315.
Under “RBNS enrichment (R)”, `AAGGGACAAUUAGCCACUUGCCCCGACACAGGUCAGCAUCAGGGCCAGAUCCCUUGCACACAGCCCAGGGCGCACACCAUAUCACACGUGGCCUUGUCUAGACCCAGUCC` is recorded as 5.65.
Under “RBNS enrichment (R)”, `GGAAGCAUUUCUUCAUUGAUUUAAAUCAGUAUGAAUAUUAUAUGCCUAAAUAAAAAAUUUGCACAGGUAAAUUCUCUCACUUGUGAAUGGGAGAAGCUGCCCCAGGAAUC` is recorded as 1.29.
`CAUCCAAAGAAGAUACAGUAUGAAAGUAGAGGUGCACUCUCUAUAAUACAAUCUACUGUACAGUUAGCAAGCGAAGUGUUAAAUGGAGAAGAUGCUUGUUUUUAUUAAAC` — result for “RBNS enrichment (R)”: 0.427.
`UUGGUUUUAAACUUUCUUAUUGCCUUUGGCUGUUGAUUAGUACAGUACAAGUGCGAUUUCAAAAAGAUCUUGAAAGUAAUAUAUUUAAUCAAUUAAAAUGUUUAUCUGUA` — result for “RBNS enrichment (R)”: 0.434.
`UGGAAGAGAACUGGGUUUCCAGGAAAAAUCAUUUAAGUCCCAGUGCCAGACCUCCUGACCCAAACACAGGGUCAGCCACUGAGGUUCCUGACUUAUCAGUGCCCAUCACU` — result for “RBNS enrichment (R)”: 0.343.
For `ACCCUUGGCUUCCUGUUCAAAUAGCCUUUCCAGGUUUAACUUCUUUAAGGAGCCUCAAGUGAAAAAAACAAAAACAAAACAAAAAACCCAGGGCCACUGGGGGAAUGUUU`, “RBNS enrichment (R)” read 0.29.
`AGUUUCAGGAACCAGCCACAUUUCUGGUGUGUAUAUGAGAGGGUGGCUGAUAGCAACUGACUUAGACCUGUACCUGGAUUUCACUUGAAUUUAUAAAAUGUGUAUUGCUC`: “RBNS enrichment (R)” 2.94.
Under “RBNS enrichment (R)”, `UCUUAAUUUUUCUCCCUUCUUUCUUUUUUUGGCUUUGGGAAAAGCAUCAUUUUACCAAACAUACCGAGAACGAAAACUUCAAGGAUGAUGUUAGAAAAAAAUGUGAUUUA` is recorded as 0.749.
For `AGCGGACCUUCCCAGCUAGAAUUCACUCCACUUGGACAUGGGCCCCAGAUACCAUGAUGCUGAGCCCGGAAACUCCACAUCCUGUGGGACCUGGGCCAUAGUCAUUCUGC`, “RBNS enrichment (R)” read 0.247.
For `UUUUGGGAGCUCCUCCAUCUCCAAUGGCUGGGAUUUGUGGCAGGGAUUCCACUCAGAACCUCUCUGGAAUUUGUGCCUGAUGUGCCUUCCACUGGAUUUUGGGGUUCCCA`, “RBNS enrichment (R)” read 0.378.
`CCUCUCUUCCAAGCCCCACCCUAAGGGUUAGCCCUUGGCCAAAUCUUUUGCCGUCUAGGCCCAGCCAGGCUUUUCUGACUAAAUAAGCAAUAAGAGGCUCUAAGCUGACU` — result for “RBNS enrichment (R)”: 0.32.

Sample 2
Target: Fragile X messenger ribonucleoprotein 1, C-terminal low-complexity region (Fmr1, Mus musculus, UniProt P35922)
Method: RNA Bind-n-Seq
Molecule type: RNA
Sample: in vitro
Concentration: 200 nM
Setting: whole 134-nt RNA, ends assumed
Together with: 150 mM KCl
Baseline: input library
Reading: higher = stronger binding
All sequences stand within: GGGAGUUCUACAGUCCGACGAUC … UGGAAUUCUCGGGUGUCAAGG
For `CACAGACAACACGCACCCGCACAGACACAGAGGGAAGGGGUUGGGAUGGGGACAGGGUGCACAGCAGGGCGGGGUAGGACCCCAGCCCCU`, the log2 enrichment was 1.27.
For `AAGUCCUGUGCUACACAUCGUAUGUACCGAAUCGGGGUUUGGGGAAAGGGGUGGGGAAAGUAUUAUGUUACGCCGUUCGGAUCUGCACUU`, the log2 enrichment was 1.1.
`GUCCUGUGCUACACAUCGUAUGUACCGAAUCGGGUUUUUUUGGGUUUGGGUUUUUGGGAAAGUAUUAUGUUACGCCGUUCGGAUCUGCAC` has a log2 enrichment of -0.0103.
For `ACCAUGCAGGUGGGCAUCUUUGGGAAGUGGGGCAAGGGGGGGAUAGGGAGGGGGGUAACACUUUGGGAACACGUGGUCCCAGGUCGUUUC`, the log2 enrichment was 0.479.
For `ACCAUGCAGGUGGGCAUCUUUGGGAAGUGGGGCAAGUGGGGGAUAGGGAGGGGGGUAACACUUUGGGAACAGGUGGUCCCAGGUCGUUUC`, the log2 enrichment was 0.762.
`CACAGACAACACUCACCCACACAGACACAGAGGGAAGGGGUUGGGAUGGGGACAGGGUGCACAGCAGGGCGGGGUAGGACCCCAGCCCCU` has a log2 enrichment of 1.3.
For `CCUGUGCUACACAUCGUAUGUACCGAAUCGGCCCCCCCGGGCCCCCCCGGCCCCCCCGGGGAAAGUAUUAUGUUACGCCGUUCGGAUCUG`, the log2 enrichment was -0.3.
For `AAGUCCUGUGCUACACAUCGUAUGUACCGAAUCGGAAAAAAAGGUUUUUGGUUUGGAAAGUAUUAUGUUACGCCGUUCGGAUCUGCACUU`, the log2 enrichment was -1.38.
With `GUCCUGUGCUACACAUCGUAUGUACCGAAUCGGGAAAAAAGGAAAAAAGGGAAAAAAGGAAAGUAUUAUGUUACGCCGUUCGGAUCUGCA` the log2 enrichment was -0.661.
With `CUCAAGUCCUGUGCUACACAUCGUAUGUACCGAAUCGGGAAGGGGAAGGAAGGAAAGUAUUAUGUUACGCCGUUCGGAUCUGCACUUCCA` the log2 enrichment was -0.17.
`UAGUUUAUGCCAACGUGACUUCAUUCAUACAGAUGAACCAAGGAUCGGGAUAGCAGUAUAAAAUUAGAAUCAAGACAGCUGACUGCUCAG` gave a log2 enrichment of -2.17.
For `CCUGUGCUACACAUCGUAUGUACCGAAUCGGGGUUUUUUUGGGGAAAAAAAGGGGUGGGGAAAGUAUUAUGUUACGCCGUUCGGAUCUGC`, the log2 enrichment was 0.438.
With `UUUCCCCUGGAGGGCGCCUCCAUCCUUGGAGGCCUAGUGCCGUCGGAGAGAGAGCGGGAGCCGCGGACAGAGACGCGUGCGCAAUUCGGA` the log2 enrichment was -1.21.
`UUGAUUGAUAUUACAGGCAAGAACCAGGAUGAAUGUGUGAUUGCUUUGCAUGACUGCAAUGGAGAUGUCAACAGAGCUAUCAAUGUUCUU` has a log2 enrichment of -2.54.

Sample 3
Target: Interferon regulatory factor 7, full length, phosphomimetic (IRF7, Homo sapiens, UniProt Q92985, residues 1-503, S101K/S471D/S472D/S475D/S476D/S477D/S483D/S484D/S487D)
UniProt Q92985, sequence (whole entry, unmodified, looked up): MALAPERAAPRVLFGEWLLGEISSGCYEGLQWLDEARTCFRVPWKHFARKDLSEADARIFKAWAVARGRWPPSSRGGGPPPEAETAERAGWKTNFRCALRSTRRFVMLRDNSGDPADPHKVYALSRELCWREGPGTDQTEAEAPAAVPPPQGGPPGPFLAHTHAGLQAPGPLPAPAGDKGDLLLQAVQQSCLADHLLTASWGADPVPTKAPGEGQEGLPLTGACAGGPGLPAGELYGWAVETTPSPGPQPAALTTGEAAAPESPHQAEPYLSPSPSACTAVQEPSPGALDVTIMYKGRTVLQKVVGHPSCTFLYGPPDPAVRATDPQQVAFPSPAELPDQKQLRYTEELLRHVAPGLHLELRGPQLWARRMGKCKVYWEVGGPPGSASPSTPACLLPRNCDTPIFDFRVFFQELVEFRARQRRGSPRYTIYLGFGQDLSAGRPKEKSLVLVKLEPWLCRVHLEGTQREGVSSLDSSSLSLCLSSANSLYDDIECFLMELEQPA
Method: protein-binding microarray
Molecule type: double-stranded DNA, one strand shown
Sample: in vitro
Concentration: 250 nM
Setting: 60-bp whole probe
Together with: salmon DNA 0.4 mg/ml
Baseline: random background probes
Reading: higher = stronger binding
All sequences stand within: GCCTAGCAC … GTCTTGATTCGCTTGACGCTGCTG
`GACGATTTCAGTTCCAAGACGTGCTAG` has a log fluorescence of 0.645 z-score.
`TCCTTCCACCATCTGATCAGGTGCTAG` gave a log fluorescence of 1.15 z-score.
The log fluorescence of `GACGGTCTCGGTCTCGGGGCGTGCTAG` is reported as 0.405 z-score.
`TTACATTTCAGTCTCGATTAGTGCTAG` has a log fluorescence of 2.42 z-score.
`TCATGACTGGAGTCTGGAACTGTGCTA` gave a log fluorescence of -0.715 z-score.
For `TTAGATATCGGGTTTCGACTAGTGCTA`, the log fluorescence was 2.41 z-score.
`TTAGGAGTGCTACTGCTTTAGTGCTAG` gave a log fluorescence of -1.25 z-score.
`GACGGGCTGCTACTGCTGACGTGCTAG` gave a log fluorescence of -0.817 z-score.
For `TTAGATTTCAGTATCGATTGGTGCTAG`, the log fluorescence was 1.29 z-score.
For `TCAATACTCGTTTACATACTGTGCTAG`, the log fluorescence was 1.29 z-score.
`GACGGTATCGACTATCGGAACGTGCTA` has a log fluorescence of 0.086 z-score.
`GATTTCTTCCCTGTGAAAACGTGCTAG` has a log fluorescence of 2.52 z-score.
With `GACGGTTTCCTACTGCTGAGGTGCTAG` the log fluorescence was 1.42 z-score.
With `GAAGATTTCGGGTATCGAGACGTGCTA` the log fluorescence was 0.907 z-score.
`CTTTCTGTCAGTTTTGAGCTGTGCTAG` has a log fluorescence of 1.15 z-score.
`TTAGATTTCACTTTCGATTAGTGCTAG` has a log fluorescence of 4.67 z-score.
`GACGGTATCGGTATCGAGACGTGCTAG` gave a log fluorescence of 1.15 z-score.
For `TCATTCTTGCATCTGGGACTGTGCTAG`, the log fluorescence was 0.508 z-score.
The log fluorescence of `GACGGTATCGGTTTGGGGACGTGCTAG` is reported as 4.99 z-score.
`TCAACACTAGTTTTTACACTGTGCTAG` has a log fluorescence of 0.168 z-score.

Sample 4
Target: Sal-like protein 4, full length isoform B (SALL4, Homo sapiens, UniProt Q9UJQ4-2, residues 1-616)
Method: universal PBM
Molecule type: double-stranded DNA, one strand shown
Sample: in vitro
Concentration: not given
Setting: 8-mer, flanks averaged, mean of replicates
Reading: higher = stronger binding
Target sequence (chain): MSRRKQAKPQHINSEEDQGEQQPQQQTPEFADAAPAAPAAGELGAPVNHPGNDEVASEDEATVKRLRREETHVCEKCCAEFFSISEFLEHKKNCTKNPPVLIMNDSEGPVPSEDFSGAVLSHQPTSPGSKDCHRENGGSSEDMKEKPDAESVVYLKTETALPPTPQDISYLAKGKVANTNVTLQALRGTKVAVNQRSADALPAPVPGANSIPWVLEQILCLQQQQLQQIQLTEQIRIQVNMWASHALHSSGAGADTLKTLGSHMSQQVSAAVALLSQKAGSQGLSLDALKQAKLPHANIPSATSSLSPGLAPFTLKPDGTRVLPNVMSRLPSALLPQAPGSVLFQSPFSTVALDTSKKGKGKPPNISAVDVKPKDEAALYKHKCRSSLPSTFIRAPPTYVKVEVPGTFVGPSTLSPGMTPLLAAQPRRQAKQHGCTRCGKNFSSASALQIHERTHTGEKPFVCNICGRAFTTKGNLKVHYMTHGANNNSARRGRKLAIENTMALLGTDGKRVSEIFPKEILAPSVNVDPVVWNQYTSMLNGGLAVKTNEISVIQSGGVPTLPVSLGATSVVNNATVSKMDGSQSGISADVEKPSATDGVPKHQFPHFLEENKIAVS
`TAGTGAGA` has an E-score of 0.0392.
With `CGGTTTGC` the E-score was -0.215.
With `TAGCGCAA` the E-score was 0.115.
For `ATTGCGGG`, the E-score was -0.0159.
The E-score of `ATAACCAC` is reported as 0.216.
With `TGGAAAAA` the E-score was 0.233.
`CGGTGTCC` has an E-score of -0.379.
`AACGAGAG` has an E-score of 0.0529.
For `GAGGACTC`, the E-score was -0.197.
For `CGAACTCC`, the E-score was -0.0628.
`TGAACCCA` gave an E-score of -0.126.
The E-score of `CTCAGCAA` is reported as 0.107.
With `GGTAAGAC` the E-score was -0.16.
`TGATACAA` has an E-score of 0.163.
`AGCACGTA` gave an E-score of -0.0131.
With `CTTCTGGA` the E-score was -0.15.
With `TCAGCCGA` the E-score was -0.194.
The E-score of `TCTGTGCA` is reported as 0.0279.
`ATCGCTCC` has an E-score of -0.155.
With `AGGCGTGG` the E-score was -0.28.
For `GTAGCGCA`, the E-score was -0.109.

Excerpt of the above (sample 4):
With `TAGCGCAA` the E-score was 0.115.
For `ATTGCGGG`, the E-score was -0.0159.
The E-score of `ATAACCAC` is reported as 0.216.
With `TGGAAAAA` the E-score was 0.233.
